Experimental data pooled from the literature.
Numbers after ± are the reported error.
gyrB with GyrA: DNA gyrase subunit B, with GyrA (gyrB, Mycobacterium tuberculosis, UniProt P9WG45)
UniProt P9WG45, sequence (whole entry, looked up): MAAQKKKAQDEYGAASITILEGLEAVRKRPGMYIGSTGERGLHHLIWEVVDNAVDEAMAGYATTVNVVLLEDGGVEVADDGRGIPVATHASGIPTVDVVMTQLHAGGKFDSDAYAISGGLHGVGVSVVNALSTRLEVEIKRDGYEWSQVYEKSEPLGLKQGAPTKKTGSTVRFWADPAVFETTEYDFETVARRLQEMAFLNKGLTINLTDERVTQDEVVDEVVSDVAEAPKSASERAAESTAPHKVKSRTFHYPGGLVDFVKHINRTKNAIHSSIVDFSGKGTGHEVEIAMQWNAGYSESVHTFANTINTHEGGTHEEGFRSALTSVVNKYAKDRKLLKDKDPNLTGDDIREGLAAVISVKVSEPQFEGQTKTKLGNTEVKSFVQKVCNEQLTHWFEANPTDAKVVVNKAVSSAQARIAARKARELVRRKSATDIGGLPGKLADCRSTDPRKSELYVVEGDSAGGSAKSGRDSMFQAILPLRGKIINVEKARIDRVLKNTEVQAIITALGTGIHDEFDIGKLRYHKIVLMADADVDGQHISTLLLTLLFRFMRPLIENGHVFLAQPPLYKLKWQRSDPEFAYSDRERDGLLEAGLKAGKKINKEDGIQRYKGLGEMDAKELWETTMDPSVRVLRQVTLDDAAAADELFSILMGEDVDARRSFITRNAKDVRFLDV
coaD: Phosphopantetheine adenylyltransferase (coaD, Mycobacterium tuberculosis, UniProt P9WPA5)
UniProt P9WPA5, sequence (whole entry, looked up): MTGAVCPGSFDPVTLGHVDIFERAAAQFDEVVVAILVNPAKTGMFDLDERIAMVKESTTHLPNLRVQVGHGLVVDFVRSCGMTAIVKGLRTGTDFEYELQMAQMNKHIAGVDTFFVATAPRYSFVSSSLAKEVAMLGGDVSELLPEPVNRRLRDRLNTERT
CNR2: Cannabinoid receptor 2 (CNR2, Homo sapiens, UniProt P34972)
UniProt P34972, sequence (whole entry, looked up): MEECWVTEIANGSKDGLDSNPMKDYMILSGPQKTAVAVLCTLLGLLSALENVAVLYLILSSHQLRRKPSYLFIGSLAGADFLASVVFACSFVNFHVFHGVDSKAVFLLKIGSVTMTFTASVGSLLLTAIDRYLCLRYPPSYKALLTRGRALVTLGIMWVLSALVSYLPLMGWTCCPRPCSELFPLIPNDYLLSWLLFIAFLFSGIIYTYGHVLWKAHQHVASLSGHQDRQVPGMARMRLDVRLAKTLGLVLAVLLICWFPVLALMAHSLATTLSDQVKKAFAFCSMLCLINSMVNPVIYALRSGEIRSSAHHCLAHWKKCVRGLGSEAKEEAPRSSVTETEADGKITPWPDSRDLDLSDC
UniProt P35372, sequence (whole entry, looked up): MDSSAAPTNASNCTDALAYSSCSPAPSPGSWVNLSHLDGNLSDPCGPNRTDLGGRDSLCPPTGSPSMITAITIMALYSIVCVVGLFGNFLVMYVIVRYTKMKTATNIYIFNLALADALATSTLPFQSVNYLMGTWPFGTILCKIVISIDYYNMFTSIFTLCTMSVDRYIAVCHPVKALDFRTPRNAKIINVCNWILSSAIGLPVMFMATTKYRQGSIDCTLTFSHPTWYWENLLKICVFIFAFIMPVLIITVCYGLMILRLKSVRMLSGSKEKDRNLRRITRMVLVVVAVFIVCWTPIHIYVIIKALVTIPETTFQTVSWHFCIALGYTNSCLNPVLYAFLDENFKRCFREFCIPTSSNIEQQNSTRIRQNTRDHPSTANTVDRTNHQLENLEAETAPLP
UniProt P14867, sequence (whole entry, looked up): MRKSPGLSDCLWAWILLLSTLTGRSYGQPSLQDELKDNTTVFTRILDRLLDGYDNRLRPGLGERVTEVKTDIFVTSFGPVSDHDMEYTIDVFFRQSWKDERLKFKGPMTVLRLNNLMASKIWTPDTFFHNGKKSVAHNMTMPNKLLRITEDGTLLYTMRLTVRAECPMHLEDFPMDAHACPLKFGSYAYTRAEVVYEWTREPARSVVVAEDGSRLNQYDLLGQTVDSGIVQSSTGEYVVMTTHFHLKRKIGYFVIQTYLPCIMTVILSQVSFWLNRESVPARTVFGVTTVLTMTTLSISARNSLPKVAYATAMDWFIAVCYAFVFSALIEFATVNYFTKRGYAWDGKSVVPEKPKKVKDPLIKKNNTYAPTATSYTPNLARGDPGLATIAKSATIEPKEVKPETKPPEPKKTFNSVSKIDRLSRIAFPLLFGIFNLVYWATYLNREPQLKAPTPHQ
UniProt Q13418, sequence (whole entry, looked up): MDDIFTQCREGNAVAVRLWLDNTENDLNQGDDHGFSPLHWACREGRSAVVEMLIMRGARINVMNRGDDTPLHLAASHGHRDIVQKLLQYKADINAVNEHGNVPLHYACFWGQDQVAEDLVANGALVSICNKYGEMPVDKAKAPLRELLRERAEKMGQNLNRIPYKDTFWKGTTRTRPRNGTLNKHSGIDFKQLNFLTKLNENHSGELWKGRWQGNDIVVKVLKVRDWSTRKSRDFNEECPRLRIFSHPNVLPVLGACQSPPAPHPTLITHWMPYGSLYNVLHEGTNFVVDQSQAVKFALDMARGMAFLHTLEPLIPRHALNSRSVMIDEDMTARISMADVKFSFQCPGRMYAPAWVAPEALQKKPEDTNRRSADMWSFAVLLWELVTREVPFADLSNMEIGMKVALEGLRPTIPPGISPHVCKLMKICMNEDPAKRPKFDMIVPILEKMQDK
UniProt P9WNE1, sequence (whole entry, looked up): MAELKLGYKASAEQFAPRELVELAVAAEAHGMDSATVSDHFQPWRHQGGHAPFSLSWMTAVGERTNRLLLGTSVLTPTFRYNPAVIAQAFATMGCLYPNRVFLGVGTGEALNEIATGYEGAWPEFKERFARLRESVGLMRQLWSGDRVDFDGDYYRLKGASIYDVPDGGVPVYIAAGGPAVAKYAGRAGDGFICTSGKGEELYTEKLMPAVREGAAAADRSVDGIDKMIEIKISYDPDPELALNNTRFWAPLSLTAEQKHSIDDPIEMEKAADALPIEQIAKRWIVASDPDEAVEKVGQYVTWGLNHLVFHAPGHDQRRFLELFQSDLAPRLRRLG
UniProt Q5VWZ2, sequence (whole entry, looked up): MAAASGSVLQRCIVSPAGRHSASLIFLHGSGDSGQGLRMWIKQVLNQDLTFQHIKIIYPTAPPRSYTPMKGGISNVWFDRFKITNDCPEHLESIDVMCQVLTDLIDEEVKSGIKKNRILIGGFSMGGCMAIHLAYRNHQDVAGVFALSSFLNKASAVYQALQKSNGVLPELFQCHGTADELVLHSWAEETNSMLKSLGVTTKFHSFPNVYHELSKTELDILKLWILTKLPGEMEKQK
UniProt Q99571, sequence (whole entry, looked up): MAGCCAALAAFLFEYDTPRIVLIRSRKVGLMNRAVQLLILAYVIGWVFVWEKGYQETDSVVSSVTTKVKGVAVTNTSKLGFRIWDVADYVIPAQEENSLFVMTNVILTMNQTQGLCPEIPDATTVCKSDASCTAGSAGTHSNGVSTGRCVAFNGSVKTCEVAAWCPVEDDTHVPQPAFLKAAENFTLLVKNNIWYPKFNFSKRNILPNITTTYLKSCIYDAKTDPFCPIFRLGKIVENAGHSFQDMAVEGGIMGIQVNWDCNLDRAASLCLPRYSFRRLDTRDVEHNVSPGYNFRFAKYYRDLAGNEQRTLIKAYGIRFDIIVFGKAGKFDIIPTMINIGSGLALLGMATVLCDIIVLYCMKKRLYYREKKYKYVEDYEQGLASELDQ
UniProt P47870, sequence (whole entry, looked up): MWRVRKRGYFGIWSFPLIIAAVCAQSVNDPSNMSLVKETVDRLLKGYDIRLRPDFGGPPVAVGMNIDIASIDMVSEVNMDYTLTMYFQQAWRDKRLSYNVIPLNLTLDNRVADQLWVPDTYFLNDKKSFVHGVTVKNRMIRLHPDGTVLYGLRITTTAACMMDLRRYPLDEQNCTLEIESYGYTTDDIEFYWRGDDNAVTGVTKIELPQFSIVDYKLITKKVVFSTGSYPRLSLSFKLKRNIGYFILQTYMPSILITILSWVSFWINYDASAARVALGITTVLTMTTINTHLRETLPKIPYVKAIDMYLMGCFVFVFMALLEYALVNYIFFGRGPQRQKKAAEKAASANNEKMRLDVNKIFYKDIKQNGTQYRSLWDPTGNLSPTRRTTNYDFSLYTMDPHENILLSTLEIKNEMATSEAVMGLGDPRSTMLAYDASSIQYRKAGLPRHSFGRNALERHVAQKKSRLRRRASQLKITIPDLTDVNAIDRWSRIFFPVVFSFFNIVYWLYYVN
UniProt Q05655, sequence (whole entry, looked up): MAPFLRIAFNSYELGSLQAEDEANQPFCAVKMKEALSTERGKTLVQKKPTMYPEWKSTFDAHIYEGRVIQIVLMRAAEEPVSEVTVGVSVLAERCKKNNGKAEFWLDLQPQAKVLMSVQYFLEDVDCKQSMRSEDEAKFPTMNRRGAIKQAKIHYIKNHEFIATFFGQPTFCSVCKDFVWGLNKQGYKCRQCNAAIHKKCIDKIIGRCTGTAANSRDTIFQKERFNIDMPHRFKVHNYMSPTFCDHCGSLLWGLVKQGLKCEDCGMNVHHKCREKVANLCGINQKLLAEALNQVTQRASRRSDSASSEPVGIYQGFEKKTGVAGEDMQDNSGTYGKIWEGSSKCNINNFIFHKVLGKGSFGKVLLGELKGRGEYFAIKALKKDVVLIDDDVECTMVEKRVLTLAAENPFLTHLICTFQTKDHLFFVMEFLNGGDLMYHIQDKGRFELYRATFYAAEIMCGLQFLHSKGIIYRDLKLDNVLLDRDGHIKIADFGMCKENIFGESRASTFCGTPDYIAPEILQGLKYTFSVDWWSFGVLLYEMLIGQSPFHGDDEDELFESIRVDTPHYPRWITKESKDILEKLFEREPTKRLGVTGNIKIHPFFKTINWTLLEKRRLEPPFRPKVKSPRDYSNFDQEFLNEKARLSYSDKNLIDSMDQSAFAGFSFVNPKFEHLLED

With `O=C(CCc1c(C(=O)Nc2ccc(Cl)cc2)[nH]c2cc(C(F)(F)F)c(Cl)cc12)Nc1ccc(Cl)cc1` the IC50 was 15.3 µM (gyrB with GyrA; inhibitor).
For `C[C@H]1CN(c2n[nH]c3nc(N[C@H]4CC[C@H](NS(=O)(=O)CCC(F)(F)F)CC4)ncc23)CCO1`, the relative abundance was 1.04 (ILK (Homo sapiens, UniProt Q13418); inhibitor, Kinobeads competition profiling; 0.032 µM; baseline: vehicle).
`CC(C)(C)OC(=O)N1CCN(C(=O)CCc2c(C(=O)N3CCN(C(=O)OC(C)(C)C)CC3)[nH]c3ccc(Cl)cc23)CC1` has an IC50 of 94 µM (gyrB with GyrA; inhibitor).
For `COc1cc(Nc2ncc(F)c(Nc3ccc4c(n3)NC(=O)C(C)(C)O4)n2)cc(OC)c1OC`, the IC50 was greater than 10 µM (ALDH2 (Homo sapiens, UniProt P05091); mitochondrial).
`OC[C@H]1CNC[C@@H](O)[C@@H]1O` has a Ki of 0.083 ± 0.012 µM (toxin B, glucosyltransferase domain (Clostridioides difficile, UniProt A0A9R0CDJ3)).
The IC50 of `O=S(=O)(c1ccc(C(F)(F)F)cc1)N1CCNCC1COc1ccc2ccccc2c1` (stereo not shown) is reported as greater than 10 µM (P2X purinoceptor 4 (P2RX4, Homo sapiens, UniProt Q99571); calcium flux, inhibitor, Ca2+ flux; human cells).
For `O=C(NCCCN1CCCCC1)c1cc(Sc2ccc(Cl)cc2)nc2ccccc12`, the maximum response was -6% (Vero-E6; CellTiter-Glo ATP; 72 h, second round 5-point; baseline: DMSO 0%, hyamine -100%, more negative, more toxic).
The Ki of `O=C(O)c1cnn(-c2ccccc2)c1OCCCc1c[nH]c2ccccc12` is reported as roughly 260 µM (coaD; enzyme activity, inhibitor, coupled pyrophosphate release; with: ATP 500 µM, 4'-phosphopantetheine 40 µM).
With `Cc1ccc(NC(=O)CCc2c(C(=O)Nc3ccc(C)cc3)[nH]c3ccc(C)cc23)cc1` the IC50 was 59.1 µM (gyrB with GyrA; inhibitor).
The maximum response of `Cc1cccc(N2CCN(C(=O)C3CCN(Cc4nc(-c5ccc(Cl)cc5)oc4C)CC3)CC2)c1C` is reported as 2.27% (Vero-E6; CellTiter-Glo ATP; 72 h, retest 8-point duplicates; baseline: DMSO 0%, hyamine -100%, more negative, more toxic).
`COc1ccc(N2C(=O)N(c3c(C)cccc3Cl)Cc3cnc(Nc4ccc(C5CCN(C)CC5)cc4OC)nc32)nc1` gave an inhibition of 3.44% (PRKCD (Homo sapiens, UniProt Q05655); kinase activity, inhibitor; 0.5 µM, kinase PKC-DELTA).
For `O=C(c1ccc(Cl)cc1)N1CCN2C(=O)N(OC(=O)N3CCOc4ccccc43)C(=O)C2C1` (stereo not shown), “mean protein ratio” read 1.04 (LYPLAL1 (Homo sapiens, UniProt Q5VWZ2); MS-based ABPP; SW-620 conditioned medium; 10 µM, 1 h, 37 °C; baseline: compound over DMSO, lower = more inhibition).
For `O=C(O)CC(O)(CC(=O)O)C(=O)O`, the Ki was 0.84 ± 0.05 µM (fgd1 (Mycobacterium tuberculosis, UniProt P9WNE1); inhibitor).
`C[C@@]12CC[C@H](O)C[C@H]1CC[C@@H]1[C@@H]2CC[C@@]2(C)C(=O)CC[C@@H]12` has an EC50 of 8.34 µM (GABA-A receptor; GABA-A site (alpha1/beta2 interface) (Homo sapiens, UniProt P14867+P47870)).
`CC[C@H](C)[C@H](NC(=O)[C@H](Cc1ccccc1)NC(=O)[C@H](CCC(=O)O)NC(=O)[C@H](CCCNC(=N)N)NC(=O)[C@H](C)NC(=O)[C@H](C)NC(=O)[C@H](CCC(N)=O)NC(=O)[C@H](CCC(=O)O)NC(=O)[C@H](CCC(=O)O)NC(=O)[C@H](CC(C)C)NC(=O)[C@H](Cc1ccc(O)cc1)NC(=O)[C@H](CO)NC(=O)[C@H](CO)NC(=O)[C@@H](NC(=O)[C@H](CC(=O)O)NC(=O)[C@H](CO)NC(=O)[C@@H](NC(=O)[C@H](Cc1ccccc1)NC(=O)[C@@H](NC(=O)CNC(=O)[C@H](CCC(=O)O)NC(=O)[C@H](C)NC(=O)CCc1c[nH]cn1)[C@@H](C)O)[C@@H](C)O)C(C)C)C(=O)N[C@@H](C)C(=O)N[C@@H](Cc1c[nH]c2ccccc12)C(=O)N[C@@H](CC(C)C)C(=O)N[C@H](C(=O)N[C@@H](CCCNC(=N)N)C(=O)NCC(=O)N[C@@H](CCCNC(=N)N)C(=O)N[C@@H](CCCCNC(=O)COCCOCCNC(=O)COCCOCCNC(=O)CC[C@H](NC(=O)CCCCCCCCCCCCCCCCC(=O)O)C(=O)O)C(=O)NCC(=O)NCC(=O)N[C@@H](CO)C(=O)N[C@@H](CCCCNc1c(NCCCCCN(O)C(=O)CCC(=O)NCCCCCN(O)C(=O)CCC(=O)NCCCCCN(O)C(C)=O)c(=O)c1=O)C(=O)O)C(C)C` [zirconium-89 labelled] has a tissue uptake of 0.44 %ID/g (gamma counting; rat, stomach-duodenum; intravenous, 3 nmol/kg, 72 h).
`CC[C@@H](c1cccc(O)c1)[C@@H](C)CN(C)C` gave an EC50 of 0.398 µM (OPRM1 (Homo sapiens, UniProt P35372); agonist; human cells; WT receptor, no receptor depletion).
For `CCCCCn1cc(C(=O)C2C(C)(C)C2(C)C)c2ccccc21`, the Ki was 0.0045 µM (CNR2).
With `O[C@H]1[C@H](O)[C@@H](O)CN2CC[C@H](O)[C@H]12` the Ki was 2350 µM (Toxin B, glucosyltransferase domain (Clostridioides difficile, UniProt A0A9R0CDJ3); glucosyltransferase activity, inhibitor, UDP-Glo glucosyltransferase luminescence; with: Rac1 and UDP-glucose).
The Kd of `O=C(O)c1cnn(-c2ccccc2)c1OCCc1c[nH]c2ccccc12` is reported as 38 ± 2 µM (coaD; ITC; pH 8.0, 25 °C, 5% DMSO).
For `F`, the IC50 was 340 ± 90 µM (8-oxo-(d)GTP phosphatase (mutT1, Mycobacterium tuberculosis, UniProt P9WIY3)).
The Ki of `CC1(C)C(C(=O)c2cn(CCCCCF)c3ccccc23)C1(C)C` is reported as 0.0021 µM (CNR2).
With `O=C(CCc1c(C(=O)NNc2ccccc2)[nH]c2ccc(C(F)(F)F)cc12)NNc1ccccc1` the IC50 was greater than 500 µM (gyrB with GyrA; inhibitor).

Excerpt of the above:
The Ki of `CC1(C)C(C(=O)c2cn(CCCCCF)c3ccccc23)C1(C)C` is reported as 0.0021 µM (CNR2).
With `O=C(CCc1c(C(=O)NNc2ccccc2)[nH]c2ccc(C(F)(F)F)cc12)NNc1ccccc1` the IC50 was greater than 500 µM (gyrB with GyrA; inhibitor).
